# Measured values collected from several papers.
# Compare with care: the assays were run in different laboratories.
# Organism: Staphylococcus aureus
SMILES,assay,system,setting,MIC
CC[C@H](C)[C@H](NC(=O)[C@H](CCCCN)NC(=O)[C@H](CCCCN)NC(=O)CNC(=O)[C@H](CCCCN)NC(=O)[C@H](CC(C)C)NC(=O)[C@H](CCCCN)NC(=O)[C@H](CCCNC(=N)N)NC(=O)[C@@H](NC(=O)[C@H](CC(C)C)NC(=O)[C@H](CCCNC(=N)N)NC(=O)[C@@H](N)CCCNC(=N)N)[C@@H](C)CC)C(=O)N[C@@H](Cc1ccc(O)cc1)C(=O)N[C@@H](CC(C)C)C(=O)N[C@@H](Cc1ccc(O)cc1)C(=O)N[C@@H](Cc1ccccc1)C(=O)N[C@@H](CCCCN)C(=O)N[C@@H](CC(C)C)C(=O)N[C@@H](CCC(N)=O)C(=O)N[C@@H](CC(C)C)C(=O)N[C@@H](CC(C)C)C(=O)N[C@@H](CCCCN)C(=O)N[C@@H](CCCCN)C(N)=O,broth microdilution,"KCTC 1621, Mueller-Hinton broth",no added salt,8 µM
CC[C@H](C)[C@H](NC(=O)[C@H](Cc1ccccc1)NC(=O)[C@@H](NC(=O)[C@H](Cc1ccccc1)NC(=O)[C@@H]1CCCN1C(=O)[C@@H](NC(=O)[C@H](C)N)[C@@H](C)CC)[C@@H](C)CC)C(=O)N[C@@H](Cc1c[nH]c2ccccc12)C(=O)N[C@@H](CCCNC(=N)N)C(=O)N[C@@H](CC(C)C)C(=O)N[C@@H](CC(C)C)C(=O)N[C@@H](CCCNC(=N)N)C(=O)N[C@@H](CCCCN)C(=O)NCC(N)=O,broth microdilution,ATCC 35556,"18 h, 37 °C",1.88 µM
O=[N+]([O-])[O-].O=[N+]([O-])[O-].O=[N+]([O-])[O-].[Ga+3],broth dilution,Newman,"22 to 24 h, 37 °C",128 µg/mL
COc1ccnc(NC(=S)N2CCN(c3ncc(C(F)(F)F)cc3Cl)CC2)c1,,"MRSA USA500-2104, clinical",,1.6 µM
CN1C(=O)Cc2ccc(F)c(CNCCCC3CN(c4ccc5c(n4)NC(=O)CO5)C(=O)O3)c21 (stereo not drawn),,ATCC 29213,,0.13 µg/mL
CCCCCC(=O)N[C@@H](CCCNC(=N)N)C(=O)N[C@@H](CCCNC(=N)N)C(=O)N[C@@H](CCCNC(=N)N)C(=O)N[C@@H](CCCNC(=N)N)C(=O)N[C@H](C(=O)N[C@@H](CC(C)C)C(=O)N[C@H](C(=O)N[C@@H](CCCCN)C(=O)N[C@@H](CCCCN)C(=O)N[C@H](C(=O)N[C@@H](CC(C)C)C(=O)N[C@@H](CCCCN)C(=O)N[C@@H](CC(C)C)C(=O)N[C@@H](CCCCN)C(=O)N[C@@H](CO)C(=O)N[C@@H](CO)C(=O)N[C@@H](C)C(=O)N[C@@H](Cc1ccc(O)cc1)C(N)=O)C(C)C)[C@@H](C)CC)[C@@H](C)CC,broth microdilution,,"24 h, 37 °C",64 µM
CC[C@H](C)[C@H](NC(=O)[C@H](CC(C)C)NC(=O)[C@H](CCCNC(=N)N)NC(=O)[C@@H](N)CCCNC(=N)N)C(=O)N[C@@H](CCCNC(=N)N)C(=O)N[C@@H](CCCCN)C(=O)N[C@@H](CC(C)C)C(=O)N[C@@H](CCCCN)C(=O)NCC(=O)N1CCC[C@H]1C(=O)N[C@H](C(=O)N[C@H](C(=O)N[C@@H](Cc1ccc(O)cc1)C(=O)N[C@@H](CC(C)C)C(=O)N[C@@H](Cc1ccc(O)cc1)C(=O)N[C@@H](Cc1ccccc1)C(=O)N[C@@H](CCCCN)C(=O)N[C@@H](CC(C)C)C(=O)N[C@@H](CCC(N)=O)C(=O)N[C@@H](CC(C)C)C(=O)N[C@@H](CC(C)C)C(=O)N[C@@H](CCCCN)C(=O)N[C@@H](CCCCN)C(N)=O)[C@@H](C)CC)[C@@H](C)CC,,"CCARM 3089, methicillin-resistant, Mueller-Hinton broth",24 h,64 µM
CN[C@H](CC(C)C)C(=O)N[C@H]1C(=O)N[C@@H](CC(N)=O)C(=O)N[C@H]2C(=O)N[C@H]3C(=O)N[C@H](C(=O)N[C@H](C(=O)O)c4cc(O)cc(O)c4-c4cc3ccc4O)[C@H](O)c3ccc(c(Cl)c3)Oc3cc2cc(c3O[C@@H]2O[C@H](CO)[C@@H](O)[C@H](O)[C@H]2O[C@H]2C[C@](C)(N)[C@H](O)[C@H](C)O2)Oc2ccc(cc2Cl)[C@H]1O,,methicillin-susceptible,,1 µg/mL
CC[C@H](C)[C@H](NC(=O)[C@H](CCCCN)NC(=O)[C@H](CC(=O)O)NC(=O)[C@H](CC(C)C)NC(=O)[C@@H](NC(=O)[C@H](CC(N)=O)NC(=O)[C@H](CC(C)C)NC(=O)[C@@H](NC(=O)[C@H](Cc1ccccc1)NC(=O)[C@H](CCCCN)NC(=O)[C@H](CCCCN)NC(=O)CNC(=O)[C@H](C)NC(=O)[C@H](CC(N)=O)NC(=O)[C@H](CCCCN)NC(=O)[C@H](Cc1ccccc1)NC(=O)[C@H](CC(N)=O)NC(=O)[C@H](CCC(=O)O)NC(=O)[C@H](Cc1c[nH]c2ccccc12)NC(=O)[C@H](CC(C)C)NC(=O)[C@@H](N)CO)[C@@H](C)CC)[C@@H](C)CC)C(=O)N[C@@H](CCCNC(=N)N)C(N)=O,,ATCC 6538,"overnight, 37 °C, no added salts or serum",2 µM
CC[C@H](C)[C@H](N)C(=O)N[C@@H](CC(C)C)C(=O)NCC(=O)N[C@H](CCCNC(=N)N)C(=O)N[C@H](C(=O)N[C@@H](Cc1c[nH]c2ccccc12)C(=O)N[C@@H](CCCCN)C(=O)NCC(=O)N[C@H](C(=O)N[C@@H](CCCCN)C(=O)N[C@@H](CC(=O)O)C(=O)N[C@H](C(=O)N[C@@H](CC(C)C)C(N)=O)[C@@H](C)CC)[C@@H](C)CC)[C@@H](C)CC,broth microdilution,ATCC 25923,with: NaCl 150 mM,25 µM
CC(C)C[C@@H](NC(=O)CNC(=O)[C@@H](CCCCN)NC(=O)[C@@H](CC(C)C)NC(=O)[C@@H](CCCCN)NC(=O)[C@@H](CCCNC(=N)N)NC(=O)[C@@H](CC(C)C)NC(=O)[C@@H](CC(C)C)NC(=O)[C@@H](CCCNC(=N)N)NC(=O)[C@H](N)CCCNC(=N)N)C(=O)N[C@H](CCCCN)C(=O)N[C@H](CCCCN)C(=O)N[C@H](Cc1ccc(O)cc1)C(=O)N[C@H](CC(C)C)C(=O)N[C@H](Cc1ccc(O)cc1)C(=O)N[C@H](Cc1ccccc1)C(=O)N[C@H](CCCCN)C(=O)N[C@H](CC(C)C)C(=O)N[C@H](CCC(N)=O)C(=O)N[C@H](CC(C)C)C(=O)N[C@H](CC(C)C)C(=O)N[C@H](CCCCN)C(=O)N[C@H](CCCCN)C(N)=O,broth microdilution,"KCTC 1621, Mueller-Hinton broth",with: FeCl3 4 µM,8 µM
C[C@@H](O)[C@H](NC(=O)[C@H](Cc1ccccc1)NC(=O)[C@H](Cc1c[nH]c2ccccc12)NC(=O)[C@H](Cc1ccccc1)NC(=O)[C@@H](NC(=O)[C@H](Cc1ccccc1)NC(=O)[C@H](CCCNC(=N)N)NC(=O)[C@@H](N)CCCNC(=N)N)[C@@H](C)O)C(=O)N[C@@H](Cc1ccccc1)C(=O)N[C@@H](CCCNC(=N)N)C(=O)N[C@@H](CCCNC(=N)N)C(N)=O,,MRSA 43300,"24 h, 37 °C",64 µM

# Excerpt of the above:
SMILES,assay,system,setting,MIC
COc1ccnc(NC(=S)N2CCN(c3ncc(C(F)(F)F)cc3Cl)CC2)c1,,"MRSA USA500-2104, clinical",,1.6 µM
CN1C(=O)Cc2ccc(F)c(CNCCCC3CN(c4ccc5c(n4)NC(=O)CO5)C(=O)O3)c21 (stereo not drawn),,ATCC 29213,,0.13 µg/mL
